Measurements from different studies.
Each numbered part is a random draw from the data of one study; scales do not carry over between parts. Changes are numbered by the printed parent chain.

Set 1 — method: competition protein-binding microarray; molecule type: double-stranded DNA, one strand shown; medium: in vitro; concentration: 2 µM; with: Cbf1 competitor, 0.05 µM; direction: higher = stronger binding; constant ends, left off below: … GTCTTGATTCGCTTGACGCTGCTG
Target: Phosphate system positive regulatory protein PHO4, full length, GST-tagged (PHO4, Saccharomyces cerevisiae, UniProt P07270, residues 1-312)
Setting: whole 60-bp probe, lowest competitor level
Residues (chain): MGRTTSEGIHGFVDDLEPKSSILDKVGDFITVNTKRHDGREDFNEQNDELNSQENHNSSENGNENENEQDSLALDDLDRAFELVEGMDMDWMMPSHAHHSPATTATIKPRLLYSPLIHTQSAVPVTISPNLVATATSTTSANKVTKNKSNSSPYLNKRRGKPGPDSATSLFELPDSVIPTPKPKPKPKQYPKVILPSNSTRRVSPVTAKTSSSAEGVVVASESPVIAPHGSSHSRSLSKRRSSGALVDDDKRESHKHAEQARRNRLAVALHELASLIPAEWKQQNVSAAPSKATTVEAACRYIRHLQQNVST
Oligonucleotide	fluorescence intensity
CTTTCCCGATCTTGCTCCGTGGGTGTAGCACATTTG	6860 a.u.
CGTCCTAGCGATTGATCAGTGGGTGCCATGAGGAAG	6560 a.u.
AGGTTGCCAGGGCTGCACGAGGAGTGGATTTCTGCT	11000 a.u.
GTCTTGTCTCATTTTCACGTGGAGTTCCCCACTTCA	11800 a.u.
TGCGCAACAACTTGAGTTGTGGGTGTATGTCTAGAA	5610 a.u.
GAAACAATATAACAGCACGTGTTGGAACGGTACACA	18400 a.u.
GCGCCGTTCTCCACAGCCGTGATGGCTAAAGTGGCG	3270 a.u.
TGCATTGTTAAAAAGCACGTCTATGTGGTCTTCCAG	7250 a.u.
CTTCTGTAAATTTTTCACGTGATCTGACGCGCCCCG	10300 a.u.
TGCTAGAGCTCGTTCCACGTGGTTACACATCCGCCA	15700 a.u.
CGTCCTAGTGATTGCTTCGTGGGTGCCATGAGGAAG	7910 a.u.

Set 2 — method: universal PBM; molecule type: double-stranded DNA, one strand shown; medium: in vitro; concentration: not given; direction: higher = stronger binding
Target: Sal-like protein 4, full length isoform B (SALL4, Homo sapiens, UniProt Q9UJQ4-2, residues 1-616)
Setting: 8-mer, flanks averaged, mean of replicates
Target sequence (chain): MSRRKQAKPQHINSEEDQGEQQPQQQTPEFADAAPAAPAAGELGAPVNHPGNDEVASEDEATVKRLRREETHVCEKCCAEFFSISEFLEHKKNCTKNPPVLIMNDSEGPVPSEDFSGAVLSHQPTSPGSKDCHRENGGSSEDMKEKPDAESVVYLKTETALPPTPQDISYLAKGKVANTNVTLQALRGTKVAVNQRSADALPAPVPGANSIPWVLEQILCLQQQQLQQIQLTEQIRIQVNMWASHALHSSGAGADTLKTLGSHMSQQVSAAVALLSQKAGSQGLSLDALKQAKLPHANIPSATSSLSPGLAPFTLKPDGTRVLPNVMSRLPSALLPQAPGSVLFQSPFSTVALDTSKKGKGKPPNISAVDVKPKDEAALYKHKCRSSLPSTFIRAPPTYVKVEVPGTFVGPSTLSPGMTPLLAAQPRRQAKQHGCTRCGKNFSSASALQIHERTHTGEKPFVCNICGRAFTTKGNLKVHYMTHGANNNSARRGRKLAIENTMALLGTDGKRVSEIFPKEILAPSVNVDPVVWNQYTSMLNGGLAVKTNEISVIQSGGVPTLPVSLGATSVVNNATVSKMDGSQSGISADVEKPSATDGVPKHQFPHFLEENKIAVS
Oligonucleotide	E-score
CATAGGTC	0.0612
ATATTGGA	0.355
ACATGGCT	-0.00793
CAGAAACC	-0.161
CCCTTAGG	-0.158
CGGATATC	0.00796
CTATGTAA	0.242
GATGCGCC	-0.0919
CATCGGTA	0.0685
CTTCCGCC	-0.147
AACAGGAT	-0.00773
CGGGCGCC	-0.279
AAAACCTA	0.179
CGCCGGGC	-0.404
CAATTCAA	0.156
CCGCTGGC	-0.329
ATCAGAAC	0.0551
CGCTCTTA	-0.0742
GCGACAAC	-0.0369
TGTCCACA	0.0872
ATCTTGTC	0.071
ATCTAATA	0.328
GGACGACA	-0.0431
GATATAAA	0.292

Set 3 — method: RNA Bind-n-Seq; molecule type: RNA; medium: in vitro; concentration: not given; setting: RNA with constant flanks, ends assumed; relative to: input RNA pool; direction: higher = stronger binding
Target: RING finger protein unkempt homolog, zinc fingers 1-6, GST-SBP tag (UNK, Homo sapiens, UniProt Q9C0B0, residues 30-357)
Constant ends, left off below: GGGAGUUCUACAGUCCGACGAUC … CAACAGAGGAUUGAGCAUCA
Construct (chain): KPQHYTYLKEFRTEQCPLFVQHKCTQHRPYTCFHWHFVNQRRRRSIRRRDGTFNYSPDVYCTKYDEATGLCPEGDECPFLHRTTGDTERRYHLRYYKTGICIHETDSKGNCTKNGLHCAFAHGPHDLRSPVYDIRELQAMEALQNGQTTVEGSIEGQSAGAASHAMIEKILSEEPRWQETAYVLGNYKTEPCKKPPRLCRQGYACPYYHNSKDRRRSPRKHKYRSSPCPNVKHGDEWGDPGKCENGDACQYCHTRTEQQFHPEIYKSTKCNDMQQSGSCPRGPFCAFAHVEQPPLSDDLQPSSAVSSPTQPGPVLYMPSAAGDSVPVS
Oligonucleotide	bound/input enrichment [ratio]
AUGCUGAUCAAUGGCUAUGCGCUCAAUUGUGUGGUUGGAUCUCAGGGCAUGCCCAAGAGAACCGUUAAUGCAAAAAUUGCUUGUCUUGACUUCAGCCUGCAGAAAACAAAAAUGAAGCUU	0.0709
GAUAUGGGCUAUAAUACUUUAGCCAACUUCCGAAUAGAAAAGAAAAUUGGUCGUGGACAAUUCCGUGAAGUUUAUAGAGCAUCCUGUCUCUUGGAUGGAGUGCCGGUAGCGUUAAAAAAA	1.06
GGUCCCGCCUGUGGCAGCAUCCUUGGGCCAGGGCCACAGCCGAUAUCUUAUACGACCUGUGUUCCGGACAUUUUUUAAAUCAUUGUGUCUAAGCAUCUCAGAGUCAAGUGUGCUUCUUUG	0.127
UGGAUCCAUCGAUGCUGUUCCUGUUGAUGAAAACCUGUUCACUGGCGAAGAUCUGGAUGAACCCGAAGAGGAAUUGAACACUCUUGACUUAGAAGAAUGAUGAGGAUGAAAACUAGGUCA	0.405
GGCAUGGUGUCAGAGCCCCUGGAGGACUUGGACCCCUACUAUGCAGACAAAAAGACUUUCACCGUAUUGAACAAAGGGAAAACAAUCUUCCGUUUCAAUGCCACACCUGCUUUAUAUAUG	0.0645
UCUGAGGAAAAGGGACACCCCCAGGAGGAAUCUGAGGAGUCAAACGUCAGCAUGGCCAGUUCCGGGGAAAAGAGGGACCACCAUUCAACCCACUACAGGGCUUCAGAGGAAGAACCUGAA	0.143

Set 4 — method: protein-binding microarray; molecule type: double-stranded DNA, one strand shown; medium: in vitro; concentration: 250 nM; setting: 60-bp whole probe; with: salmon DNA 0.4 mg/ml; relative to: random background probes; direction: higher = stronger binding; constant ends, left off below: GCCTAGCAC … GTCTTGATTCGCTTGACGCTGCTG
Target: Interferon regulatory factor 7, full length, phosphomimetic (IRF7, Homo sapiens, UniProt Q92985, residues 1-503, S101K/S471D/S472D/S475D/S476D/S477D/S483D/S484D/S487D)
Construct (chain): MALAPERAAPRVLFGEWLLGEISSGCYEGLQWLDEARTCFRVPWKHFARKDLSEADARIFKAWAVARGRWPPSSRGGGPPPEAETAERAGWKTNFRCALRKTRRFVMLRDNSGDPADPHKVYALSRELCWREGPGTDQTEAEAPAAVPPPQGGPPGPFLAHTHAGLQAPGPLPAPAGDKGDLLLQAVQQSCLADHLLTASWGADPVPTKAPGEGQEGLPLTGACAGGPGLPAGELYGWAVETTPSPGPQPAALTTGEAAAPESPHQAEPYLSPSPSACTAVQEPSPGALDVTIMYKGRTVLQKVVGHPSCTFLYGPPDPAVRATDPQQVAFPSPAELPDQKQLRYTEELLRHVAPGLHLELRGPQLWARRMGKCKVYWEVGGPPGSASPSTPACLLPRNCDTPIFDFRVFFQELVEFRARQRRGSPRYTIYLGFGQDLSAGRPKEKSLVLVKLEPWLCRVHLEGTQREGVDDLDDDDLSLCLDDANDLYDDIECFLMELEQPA
Oligonucleotide	log fluorescence
TACGGTTTCGACACTGGGGACGTGCTA	3.96 z-score
GACGGACTGCGTTTCGGGACGTGCTAG	0.183 z-score
TTAGATTTCAGTTCCGAGTAGTGCTAG	1.14 z-score
TCAGAACTGAGTTTCGATTAGTGCTAG	7.99 z-score
TCCTATGTCATTTACATTTTGTGCTAG	0.482 z-score
GACGGACTGGGTTGCGGGACGTGCTAG	-0.155 z-score
TTAGGACAGCTTCTCCTTTAGTGCTAG	0.234 z-score
TTGGGTATCCTACTGCTTTAGTGCTAG	-0.388 z-score
GACGGTATCGGGACTGCGGACGTGCTA	-0.41 z-score
AGAGTCACCCATCTCAGCAAGTGCTAG	-0.459 z-score
ACAAATGGCCAACAAACATTGTGCTAG	-0.116 z-score
TCAAATTTGAGTCACTGACTGTGCTAG	0.0894 z-score
GACGGTCTCTGTATCGGGACGTGCTAG	-0.129 z-score

Set 5 — method: DHFR PCA, deep sequencing; medium: yeast; with: (+)-ABA 0.39 µM; relative to: wild-type fitted maximum; direction: higher = stronger binding
Target: ABI1, truncated, D143A, DHFR fusion (Arabidopsis thaliana)
Setting: methotrexate growth selection, single substitutions
Starting sequence: PYL1, truncated, DHFR fusion (Arabidopsis thaliana); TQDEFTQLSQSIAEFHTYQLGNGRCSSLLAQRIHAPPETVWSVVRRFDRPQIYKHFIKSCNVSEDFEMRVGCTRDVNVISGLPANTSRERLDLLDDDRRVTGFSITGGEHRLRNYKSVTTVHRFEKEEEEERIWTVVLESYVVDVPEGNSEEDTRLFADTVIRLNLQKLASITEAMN; partner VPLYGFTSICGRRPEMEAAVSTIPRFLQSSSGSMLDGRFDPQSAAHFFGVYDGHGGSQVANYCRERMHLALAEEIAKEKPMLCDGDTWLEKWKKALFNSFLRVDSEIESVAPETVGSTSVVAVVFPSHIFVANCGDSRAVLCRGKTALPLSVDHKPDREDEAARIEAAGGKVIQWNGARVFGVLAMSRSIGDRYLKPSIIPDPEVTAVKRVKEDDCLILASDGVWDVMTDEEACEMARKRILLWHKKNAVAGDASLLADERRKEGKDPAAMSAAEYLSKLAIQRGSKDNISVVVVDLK
Substitution	relative binding score
N22T	50.3%
F103V	-9.03%
S150M	-13.8%
E147W	-0.538%
S27P	-0.667%
E38C	-0.836%
G71D	-6.74%
V40Q	-16.3%
D95K	-11.6%
L138N	-25.5%
Q51T	-2.92%
Y18V	8.33%
V70G	-7.02%
A84S	33.5%
L164G	15.7%
C60M	-13.7%

Set 6 — method: protein binding microarray; molecule type: double-stranded DNA, one strand shown; medium: in vitro; concentration: not given; relative to: not given; direction: higher = stronger binding
Target: Histone acetyltransferase KAT6A, winged helix 2, GST fusion (KAT6A, Homo sapiens, UniProt Q92794, residues 85-181)
Setting: 8-mer, flanks averaged, mean of 2 arrays, mostly near background
Construct (chain): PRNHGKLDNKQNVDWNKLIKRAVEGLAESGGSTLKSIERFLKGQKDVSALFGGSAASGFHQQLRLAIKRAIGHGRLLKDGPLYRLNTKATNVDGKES
Oligonucleotide	E-score
CGGGAACA	0.188
GGATAAAC	0.164
CAGATCAG	0.0236
CCATAAAC	-0.181
AGCTCCCT	-0.0749
GATTAGGC	0.00084
AAGCGCAA	0.101
AGAAGTCG	-0.168
AGGTGAAA	-0.00543
TGGACTAA	-0.0251
TATTGGAA	-0.243
AATACTCG	-0.211
ACACTTAC	-0.111
CTGTGGAA	0.105
GAGATTAA	-0.0182
ACTATCCT	-0.174
CAGGCGAG	0.182
GCACTTCA	-0.00352
CTCGTAGA	-0.241
CGGGGCGC	0.188
AGACGGCA	0.178
AGTCGAGG	0.0915
CGTCTACA	-0.103

A few entries again (set 1):
Oligonucleotide	fluorescence intensity
CTTTCCCGATCTTGCTCCGTGGGTGTAGCACATTTG	6860 a.u.
CGTCCTAGCGATTGATCAGTGGGTGCCATGAGGAAG	6560 a.u.
AGGTTGCCAGGGCTGCACGAGGAGTGGATTTCTGCT	11000 a.u.
GTCTTGTCTCATTTTCACGTGGAGTTCCCCACTTCA	11800 a.u.
TGCGCAACAACTTGAGTTGTGGGTGTATGTCTAGAA	5610 a.u.
GAAACAATATAACAGCACGTGTTGGAACGGTACACA	18400 a.u.
GCGCCGTTCTCCACAGCCGTGATGGCTAAAGTGGCG	3270 a.u.
TGCATTGTTAAAAAGCACGTCTATGTGGTCTTCCAG	7250 a.u.
CTTCTGTAAATTTTTCACGTGATCTGACGCGCCCCG	10300 a.u.
